Measurements gathered from unrelated publications.
Numbered parts are unrelated; each lists some results of a single study.

Set 1
Target: UBE2J1 UBC core domain (UniProt Q9Y385)
Method: yeast two-hybrid
Medium: yeast
Notes: mostly zero background
Baseline: not given
Direction: higher = stronger interaction
B1: UBOX5 RING domain (UniProt O94941); chain EQPGSILGPECASCKRVFSPYFKKEPVYQLPCGHLLCRPCLGEKQRSLPMTCTACQRPVASQDVLR
B2: SYTL4 RING domain (UniProt Q96C24); chain RGSQHYSDRTCARCQESLGRLSPKTNTCRGCNHLVCRDCRIQESNGTWRCKVCAKEIELKKAT
B3: RNF19A RING domain (UniProt Q9NV58); chain ISKQIGDFIECPLCLLRHSKDRFPDIMTCHHRSCVDCLRQYLRIEISESRVNISCPECTERFNPHDIR
B4: MDM4 RING domain (UniProt O15151); chain MEDCQNLLKPCSLCEKRPRDGNIIHGRTGHLVTCFHCARRLKKAGASCPICKKEIQLVIKVF
B5: TRIM62 RING domain (UniProt Q9BVG3); chain MACSLKDELLCSICLSIYQDPVSLGCEHYFCRRCITEHWVRQEAQGARDCPECRRTFAEPALAP
B6: ZMIZ2 RING domain (UniProt Q8NF64); chain GTIPGTPGPNGEDGVEQTAIKVSLKCPITFRRIQLPARGHDCRHIQCFDLESYLQLNCERGTWRCPVCNKTALLEGLEVDQYMLGILIYIQNSDYEEITIDPTCSWK
B7: DZIP3 RING domain (UniProt Q86Y13); chain PDEEEEEEEPCVICHENLSPENLSVLPCAHKFHAQCIRPWLMQQGTCPTCRLHVLLPEEFP
Construct (chain): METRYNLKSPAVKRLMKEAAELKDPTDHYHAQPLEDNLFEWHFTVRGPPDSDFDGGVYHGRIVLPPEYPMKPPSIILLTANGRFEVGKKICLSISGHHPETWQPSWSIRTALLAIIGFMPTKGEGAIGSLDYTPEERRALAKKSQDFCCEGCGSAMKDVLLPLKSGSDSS
Sequence	lacZ reporter activity
B1 (UBOX5 RING domain)	0
B2 (SYTL4 RING domain)	0
B3 (RNF19A RING domain)	0
FDGDVDPDLKCALCHKVLEDPLTTPCGHVFCAGCVLPWVVQEGSCPARCRGRLSAKELN (PDZRN3 RING domain (UniProt Q9UPQ7))	0
AVPSGLEENLCKICMDSPIDCVLLECGHMVTCTKCGKRMNECPICRQYVIRAVHVF (RFFL RING domain (UniProt Q8WZ73))	0
KETIKKTTKPCPRCHVPVEKNGGCMHMKCPQPQCRLEWCWNCGCEWNRVCMG (PRKN RING domain (UniProt O60260))	0
B4 (MDM4 RING domain)	0
B5 (TRIM62 RING domain)	0
B6 (ZMIZ2 RING domain)	0
B7 (DZIP3 RING domain)	0

Set 2
Target: RNA binding protein fox-1 homolog 2, RRM domain, GST-SBP tag (RBFOX2, Homo sapiens, UniProt O43251-10, residues 100-194)
Method: RNA Bind-n-Seq
Molecule type: RNA
Medium: in vitro
Concentration: 365 nM
Notes: natural RNA segment, single round, ends assumed
Baseline: no-protein control
Direction: higher = stronger binding
Shared flanks, not repeated: GGGAGUUCUACAGUCCGACGAUC … UGGAAUUCUCGGGUGCCAA
Residues (chain): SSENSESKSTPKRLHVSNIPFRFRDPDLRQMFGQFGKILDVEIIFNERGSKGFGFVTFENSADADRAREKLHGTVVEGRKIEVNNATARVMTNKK
Sequence	RBNS enrichment (R)
GGUCUAUGAAGACCAGUGGUAGUGCCCAGACUUCUCCUAGACAUCUAGUCUAAAACAUUCUCCUAGGACCAGGGAAGCCUGGCUUACAGUGCCAUUUCUGCUGGGCACCA	0.27
UUCCUACGAGAGGAGGAGACCUUCUGAGUGUGCCCUUUGGCCACGGACACUGUUGGGAACCAAACUCUGUCUUGGAGCCUCCUUUUAGCUCACUCCACAAGUAAAUGGAU	0.261
UUGUGAUUCUGGGGUCUCUUCAAUGACCCCGGUACCUCAUGAACCCCUGCUUAGCAUGGUUGUGCUACCAUCCAGGAGAAUGUUGAUGGAACCAAAUUAAAUAUUUACUG	0.611
UUGUUUCUUUGAUUUCUUUGCCAAUGGCAAGAAGAUGAGAUGCCCUCAGCACUGAGGAUUCUUGCCCCCUUGUGGUGCCCGCUGCCCCCAACCUUCAGGCUGCCAGAUGC	0.394
UUCCAAAAAAUGUGUGUUGUUUGUUCCUCCUCAUCCUCUUCUGAGACUGUUGUUUUUUUAGAGCUUGAUUGUGGGAGAAAAGCUUGUGUGAAAUUCCCUCUUCACCUCCC	1.49
GGGCCAGAUAGAUAGGUCCUAGCAGAAGGCAUUGAGGUGAGGGAUCAUUUUGGGUCAGACAUCAAUGUCCCUGUCCCCCCUGGGUCCAGCCAAGCUGUGCCCCAUCCCCC	0.303
UGCCAUCUCCCUGCCAGCACCCCUUGAGUGUCCACAUCCAGGGACCGAGCCUGGCACAGCUCCCCUAUCCAUUGCCAGAUGAAUGUAUAAUGCUAGAUGAAGCUGUGAAC	0.387
GCUGUGUCACUGAGGUGGUGCCCCUCUGCCUGCCUGCCCCACUGUGCUGGCAGGAGCUGACUGUGGACUGGUGGGCUCCCCUCUGGGCCAGCACAGUCCCCUCACCUCUG	1.56
AUUGUGGACAGUAAUACGCAGUUACAGGGUGUAGUCUGUUUAGAAUCCGUAGUUUGUGGGUAUCAGUUGCGGUAGAGAUGCAACAUUUGUGACUCUGUUGCUAACGGUUA	0.471
CCCAGGCUGCUGCUCUGUGGUAUUUCCAGUCUCAGACUUGUGUUGUGGAGUCAUGGUGUUAGUGUUCUGCCUUUUUAUGUUCUAAGACUACUUGUUAGAGGACGGAAGAU	0.532
AAUGUCAGGUGCUCUUGUCUGAUGUAGAAGUCUUUGAUGAGGAAGCCUUCUUUCCCUUGGGGUCUCUGGAAGAUCCUAGCAGACUUUGCCUGUGGGCCUGCUCAGCAUGA	14.5
UCAGGCAAGUUUUUCCUCUGUUUUUAAUAUAUAACUAUAAUAUAUAUGAAUAGAUAAAUAUAACUAAUGUGCGUGAGAAUGGGCCUGGCACACCUGGGGUGCUCGGGGGU	0.809

Set 3
Target: Ras GTPase-activating protein-binding protein 1, RRM domain (G3BP1, Homo sapiens, UniProt Q13283)
UniProt Q13283, sequence (whole entry, looked up): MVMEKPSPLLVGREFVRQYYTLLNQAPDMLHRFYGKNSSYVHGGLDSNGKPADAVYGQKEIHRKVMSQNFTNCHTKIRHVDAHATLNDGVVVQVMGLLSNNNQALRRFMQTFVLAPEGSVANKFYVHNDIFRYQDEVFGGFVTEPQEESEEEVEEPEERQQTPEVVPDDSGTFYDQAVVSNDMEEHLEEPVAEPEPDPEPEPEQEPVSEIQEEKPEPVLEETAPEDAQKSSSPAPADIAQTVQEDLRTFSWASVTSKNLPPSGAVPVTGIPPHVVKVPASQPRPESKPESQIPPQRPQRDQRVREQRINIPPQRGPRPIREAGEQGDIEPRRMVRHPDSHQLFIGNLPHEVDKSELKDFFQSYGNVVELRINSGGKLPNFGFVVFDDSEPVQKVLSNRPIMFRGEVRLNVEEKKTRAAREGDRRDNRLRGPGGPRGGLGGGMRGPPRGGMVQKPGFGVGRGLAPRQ
Method: RNA Bind-n-Seq
Molecule type: RNA
Medium: in vitro
Concentration: 1 µM
Notes: whole 134-nt RNA, ends assumed
With: 150 mM KCl
Baseline: input library
Direction: higher = stronger binding
Shared flanks, not repeated: GGGAGUUCUACAGUCCGACGAUC … UGGAAUUCUCGGGUGUCAAGG
Sequence	log2 enrichment
UAACUUUAGAGGAGGAUCUGAUGGAUAUGGCAGUGGACGUGGAUUUGGGGAUGGCUAUAAUGGGUAUGGACGAGGACCUGGAGGUGGCAA	-0.298
GUCCUGUGCUACACAUCGUAUGUACCGAAUCGGGUUUUUUUGGGAAAGGGUUUUUGGGAAAGUAUUAUGUUACGCCGUUCGGAUCUGCAC	0.00699
UCAAGUCCUGUGCUACACAUCGUAUGUACCGAAUCGGGCCCGGGCCCGGCCCGGAAAGUAUUAUGUUACGCCGUUCGGAUCUGCACUUCC	-0.498
CCUGUGCUACACAUCGUAUGUACCGAAUCGGGGAAAAAGGGGUUUUUUUGGGGAAAGGGGAAAGUAUUAUGUUACGCCGUUCGGAUCUGC	0.737
UGGCCCUGGUGGCAUGCGGGGAGGAAGAGGUGGCCUCAUGGAUCGUGGUGCUCCCGGUGGAAUGUUCAGAGGUGGCCGUGGUGGAGACAG	0.608
UUGUGGAAAGGAGGAGAACCCCUGCUGAAAUUCGAGAGGAGUUUGAGCGGCUGCAGAGAGAGAGAGAAGAGAGGAGAUUGCAGCAGCGAA	0.072
AAGUCCUGUGCUACACAUCGUAUGUACCGAAUCGGGGUUUGGGUUUGGGGUUUGGGGAAAGUAUUAUGUUACGCCGUUCGGAUCUGCACU	0.473
CUCAAGUCCUGUGCUACACAUCGUAUGUACCGAAUCGGGUUGGGUUGGGUUGGGAAAGUAUUAUGUUACGCCGUUCGGAUCUGCACUUCC	0.863
GCAGGAAGUAAAAACAAAUGGAAAUGCUUCGGAUAGUGGCAGGGGUGGGGGUUGCUAAGGAUAGGGUGGGAUGGGAGUGGGUAAAGAGUU	1.35
GCAGGAAGUAAAAACAAAUGGAAAUGCUUCGGAUAGUGGCAGGGGUGGGGGUUGCUAAGGAAAGGGUGGGAUGGGAGUGGUUAAAGAGUU	1.27
AAGUCCUGUGCUACACAUCGUAUGUACCGAAUCGGGUUUUGGGUUUUGGUUUUGGGAAAGUAUUAUGUUACGCCGUUCGGAUCUGCACUU	-0.238
UGGGAGGUGGAUUUUGUUUAUUUUUUUAGCUCAUUUCCAGGGGUGGGAAUUUUUUUUUAAUAUGUGUCAUGAAUAAAGUUGUUUCUGAAA	1.15
UCAAGUCCUGUGCUACACAUCGUAUGUACCGAAUCGGGGCCGGGCCGGCCGGGGAAAGUAUUAUGUUACGCCGUUCGGAUCUGCACUUCC	-0.707
AAGUCCUGUGCUACACAUCGUAUGUACCGAAUCGGGUUUUUGGGAGGGAAAAAGGGAAAGUAUUAUGUUACGCCGUUCGGAUCUGCACUU	0.278

Set 4
Target: Histone acetyltransferase KAT6A, both winged helices, GST fusion (KAT6A, Homo sapiens, UniProt Q92794, residues 1-181)
Method: protein binding microarray
Molecule type: double-stranded DNA, one strand shown
Medium: in vitro
Concentration: not given
Notes: 8-mer, flanks averaged, mean of 2 arrays, mostly near background
Baseline: not given
Direction: higher = stronger binding
Construct (chain): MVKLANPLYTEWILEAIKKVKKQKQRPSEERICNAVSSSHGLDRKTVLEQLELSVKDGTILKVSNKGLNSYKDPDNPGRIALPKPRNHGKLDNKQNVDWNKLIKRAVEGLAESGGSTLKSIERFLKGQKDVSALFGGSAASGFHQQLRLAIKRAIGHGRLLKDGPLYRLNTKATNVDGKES
Sequence	E-score
TACGCCAA	-0.0393
ATAGAGTG	-0.131
CTTCTAGA	0.047
GCATTCCA	-0.0209
ATAATACG	0.0364
GCTCGACA	-0.0214
AAAGCTGA	-0.0255
TGAAATAA	-0.0901
TCCATTAA	-0.0377
GAGCGCAA	0.191
CATGGTGA	-0.0192
AATACCCT	-0.0754
CAATAGTA	-0.165
GATATATA	-0.00187
CACGAGTA	0.0128
CGGTACCA	0.0227

Excerpt of the above (set 3):
Sequence	log2 enrichment
GCAGGAAGUAAAAACAAAUGGAAAUGCUUCGGAUAGUGGCAGGGGUGGGGGUUGCUAAGGAAAGGGUGGGAUGGGAGUGGUUAAAGAGUU	1.27
UCAAGUCCUGUGCUACACAUCGUAUGUACCGAAUCGGGCCCGGGCCCGGCCCGGAAAGUAUUAUGUUACGCCGUUCGGAUCUGCACUUCC	-0.498
GUCCUGUGCUACACAUCGUAUGUACCGAAUCGGGUUUUUUUGGGAAAGGGUUUUUGGGAAAGUAUUAUGUUACGCCGUUCGGAUCUGCAC	0.00699
AAGUCCUGUGCUACACAUCGUAUGUACCGAAUCGGGUUUUUGGGAGGGAAAAAGGGAAAGUAUUAUGUUACGCCGUUCGGAUCUGCACUU	0.278
AAGUCCUGUGCUACACAUCGUAUGUACCGAAUCGGGUUUUGGGUUUUGGUUUUGGGAAAGUAUUAUGUUACGCCGUUCGGAUCUGCACUU	-0.238
AAGUCCUGUGCUACACAUCGUAUGUACCGAAUCGGGGUUUGGGUUUGGGGUUUGGGGAAAGUAUUAUGUUACGCCGUUCGGAUCUGCACU	0.473
UGGCCCUGGUGGCAUGCGGGGAGGAAGAGGUGGCCUCAUGGAUCGUGGUGCUCCCGGUGGAAUGUUCAGAGGUGGCCGUGGUGGAGACAG	0.608
GCAGGAAGUAAAAACAAAUGGAAAUGCUUCGGAUAGUGGCAGGGGUGGGGGUUGCUAAGGAUAGGGUGGGAUGGGAGUGGGUAAAGAGUU	1.35
UUGUGGAAAGGAGGAGAACCCCUGCUGAAAUUCGAGAGGAGUUUGAGCGGCUGCAGAGAGAGAGAGAAGAGAGGAGAUUGCAGCAGCGAA	0.072
